{"data": "Experimental data gathered from unrelated publications", "note": "Each numbered part is a random draw from the data of one study; scales do not carry over between parts. “And” joins repeats or separate records; there may be more than shown.", "chain of UniProt P07947 (whole entry, looked up)": "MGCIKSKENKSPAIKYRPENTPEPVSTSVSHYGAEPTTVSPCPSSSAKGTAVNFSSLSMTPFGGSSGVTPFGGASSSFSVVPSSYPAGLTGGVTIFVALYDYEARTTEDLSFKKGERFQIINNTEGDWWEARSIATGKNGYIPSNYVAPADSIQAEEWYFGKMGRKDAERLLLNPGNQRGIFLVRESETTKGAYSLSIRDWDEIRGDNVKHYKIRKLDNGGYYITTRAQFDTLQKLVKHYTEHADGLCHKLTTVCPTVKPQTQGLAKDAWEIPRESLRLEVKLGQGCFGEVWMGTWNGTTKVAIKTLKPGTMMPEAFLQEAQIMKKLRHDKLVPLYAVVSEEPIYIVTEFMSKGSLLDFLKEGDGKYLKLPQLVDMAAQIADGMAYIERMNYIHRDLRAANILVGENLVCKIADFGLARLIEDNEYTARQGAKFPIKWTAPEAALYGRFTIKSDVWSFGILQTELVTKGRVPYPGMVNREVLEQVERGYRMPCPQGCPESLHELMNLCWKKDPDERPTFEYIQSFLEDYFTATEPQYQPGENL", "chain of UniProt Q9HBY8 (whole entry, looked up)": "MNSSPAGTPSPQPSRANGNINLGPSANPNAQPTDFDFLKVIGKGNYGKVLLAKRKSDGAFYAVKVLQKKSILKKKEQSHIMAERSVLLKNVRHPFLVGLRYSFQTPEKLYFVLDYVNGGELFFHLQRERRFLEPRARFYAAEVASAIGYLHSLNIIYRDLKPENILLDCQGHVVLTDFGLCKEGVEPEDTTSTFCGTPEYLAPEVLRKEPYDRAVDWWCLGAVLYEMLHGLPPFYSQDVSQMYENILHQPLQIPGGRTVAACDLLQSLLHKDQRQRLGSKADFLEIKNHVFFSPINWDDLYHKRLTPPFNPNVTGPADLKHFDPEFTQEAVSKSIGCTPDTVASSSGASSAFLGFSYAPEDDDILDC", "chain of UniProt P54753 (whole entry, looked up)": "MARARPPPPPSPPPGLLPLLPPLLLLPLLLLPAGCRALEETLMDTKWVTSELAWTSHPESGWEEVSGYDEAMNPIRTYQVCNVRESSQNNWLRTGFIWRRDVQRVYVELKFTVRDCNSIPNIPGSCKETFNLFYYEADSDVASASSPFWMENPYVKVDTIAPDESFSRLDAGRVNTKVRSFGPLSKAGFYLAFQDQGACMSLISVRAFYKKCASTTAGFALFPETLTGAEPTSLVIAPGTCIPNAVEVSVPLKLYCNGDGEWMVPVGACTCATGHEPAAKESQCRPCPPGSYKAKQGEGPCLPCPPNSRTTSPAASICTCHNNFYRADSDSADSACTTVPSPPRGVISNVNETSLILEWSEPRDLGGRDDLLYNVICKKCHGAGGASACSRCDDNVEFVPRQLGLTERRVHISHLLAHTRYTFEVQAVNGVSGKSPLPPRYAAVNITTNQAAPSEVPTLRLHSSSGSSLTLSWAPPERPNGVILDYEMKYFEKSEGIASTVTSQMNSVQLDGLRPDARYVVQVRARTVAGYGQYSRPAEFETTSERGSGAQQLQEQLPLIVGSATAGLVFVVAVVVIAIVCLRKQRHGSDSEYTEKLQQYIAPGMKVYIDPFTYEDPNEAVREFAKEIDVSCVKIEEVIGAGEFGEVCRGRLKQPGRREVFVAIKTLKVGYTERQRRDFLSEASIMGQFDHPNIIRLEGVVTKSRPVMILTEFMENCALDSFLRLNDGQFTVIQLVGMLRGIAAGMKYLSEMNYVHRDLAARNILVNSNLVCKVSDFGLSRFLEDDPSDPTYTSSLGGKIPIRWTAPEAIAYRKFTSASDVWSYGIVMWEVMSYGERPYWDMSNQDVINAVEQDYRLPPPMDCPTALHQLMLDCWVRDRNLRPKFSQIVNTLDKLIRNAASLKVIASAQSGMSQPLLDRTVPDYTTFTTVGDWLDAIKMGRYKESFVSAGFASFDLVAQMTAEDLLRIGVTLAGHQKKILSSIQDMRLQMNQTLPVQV", "chain of UniProt Q14680 (whole entry, looked up)": "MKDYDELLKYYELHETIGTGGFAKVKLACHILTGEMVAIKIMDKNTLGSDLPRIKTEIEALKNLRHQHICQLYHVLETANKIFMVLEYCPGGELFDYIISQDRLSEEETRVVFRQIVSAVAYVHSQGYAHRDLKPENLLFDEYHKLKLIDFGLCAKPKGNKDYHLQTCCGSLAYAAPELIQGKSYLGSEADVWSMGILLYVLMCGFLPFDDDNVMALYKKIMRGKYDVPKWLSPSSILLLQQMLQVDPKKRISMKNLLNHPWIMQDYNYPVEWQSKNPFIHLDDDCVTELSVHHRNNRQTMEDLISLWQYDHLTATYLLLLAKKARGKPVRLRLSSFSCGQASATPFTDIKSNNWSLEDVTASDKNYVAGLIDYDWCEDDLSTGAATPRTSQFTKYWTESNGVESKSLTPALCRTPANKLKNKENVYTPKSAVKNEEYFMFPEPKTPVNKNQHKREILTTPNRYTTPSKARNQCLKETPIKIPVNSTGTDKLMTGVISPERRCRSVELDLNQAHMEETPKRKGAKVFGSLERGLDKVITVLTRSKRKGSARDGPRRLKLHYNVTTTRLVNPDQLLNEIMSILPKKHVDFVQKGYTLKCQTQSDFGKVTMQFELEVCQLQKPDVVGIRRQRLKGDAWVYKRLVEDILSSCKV", "chain of UniProt Q06418 (whole entry, looked up)": "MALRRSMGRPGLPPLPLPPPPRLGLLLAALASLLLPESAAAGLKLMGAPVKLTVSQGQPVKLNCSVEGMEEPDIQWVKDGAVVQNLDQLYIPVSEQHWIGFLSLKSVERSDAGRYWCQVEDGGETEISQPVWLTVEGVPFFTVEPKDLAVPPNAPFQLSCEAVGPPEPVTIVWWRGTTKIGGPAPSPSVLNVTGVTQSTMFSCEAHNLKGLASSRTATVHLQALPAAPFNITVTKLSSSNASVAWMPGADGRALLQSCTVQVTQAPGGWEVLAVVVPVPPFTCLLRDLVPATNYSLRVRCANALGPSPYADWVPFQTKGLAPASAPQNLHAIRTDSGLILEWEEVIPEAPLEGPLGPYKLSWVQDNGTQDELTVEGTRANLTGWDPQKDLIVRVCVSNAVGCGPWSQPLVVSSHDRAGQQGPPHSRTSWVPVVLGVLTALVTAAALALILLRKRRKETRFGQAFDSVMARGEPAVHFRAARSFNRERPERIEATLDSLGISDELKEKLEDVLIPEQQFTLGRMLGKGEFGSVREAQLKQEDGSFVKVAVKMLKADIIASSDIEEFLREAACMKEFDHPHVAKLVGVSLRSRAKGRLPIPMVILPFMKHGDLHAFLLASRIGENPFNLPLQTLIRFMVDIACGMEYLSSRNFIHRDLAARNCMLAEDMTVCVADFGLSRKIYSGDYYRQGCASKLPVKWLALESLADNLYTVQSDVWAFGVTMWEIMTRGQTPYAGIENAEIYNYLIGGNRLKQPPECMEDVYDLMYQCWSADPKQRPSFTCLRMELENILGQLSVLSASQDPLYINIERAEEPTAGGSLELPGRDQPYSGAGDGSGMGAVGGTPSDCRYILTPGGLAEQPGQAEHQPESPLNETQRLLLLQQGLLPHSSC", "chain of UniProt Q04759 (whole entry, looked up)": "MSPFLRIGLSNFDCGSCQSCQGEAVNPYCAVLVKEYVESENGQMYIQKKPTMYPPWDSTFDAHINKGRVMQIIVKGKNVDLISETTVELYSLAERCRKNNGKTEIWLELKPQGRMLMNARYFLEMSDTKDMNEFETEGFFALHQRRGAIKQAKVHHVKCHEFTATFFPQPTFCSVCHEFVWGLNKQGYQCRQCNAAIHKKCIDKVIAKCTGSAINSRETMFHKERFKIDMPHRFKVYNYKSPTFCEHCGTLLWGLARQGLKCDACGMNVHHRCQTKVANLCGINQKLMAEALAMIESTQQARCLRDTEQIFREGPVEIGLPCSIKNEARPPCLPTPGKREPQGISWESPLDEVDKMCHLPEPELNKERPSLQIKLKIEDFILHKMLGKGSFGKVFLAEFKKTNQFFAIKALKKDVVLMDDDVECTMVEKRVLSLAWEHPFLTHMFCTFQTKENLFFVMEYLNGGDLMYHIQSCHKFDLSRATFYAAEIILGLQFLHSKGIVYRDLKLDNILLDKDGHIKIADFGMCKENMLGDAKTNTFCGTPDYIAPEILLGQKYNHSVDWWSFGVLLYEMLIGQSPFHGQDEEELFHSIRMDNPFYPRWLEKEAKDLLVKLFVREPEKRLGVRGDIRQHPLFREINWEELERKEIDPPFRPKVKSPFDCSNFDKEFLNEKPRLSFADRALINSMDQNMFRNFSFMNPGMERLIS", "chain of UniProt P49841 (whole entry, looked up)": "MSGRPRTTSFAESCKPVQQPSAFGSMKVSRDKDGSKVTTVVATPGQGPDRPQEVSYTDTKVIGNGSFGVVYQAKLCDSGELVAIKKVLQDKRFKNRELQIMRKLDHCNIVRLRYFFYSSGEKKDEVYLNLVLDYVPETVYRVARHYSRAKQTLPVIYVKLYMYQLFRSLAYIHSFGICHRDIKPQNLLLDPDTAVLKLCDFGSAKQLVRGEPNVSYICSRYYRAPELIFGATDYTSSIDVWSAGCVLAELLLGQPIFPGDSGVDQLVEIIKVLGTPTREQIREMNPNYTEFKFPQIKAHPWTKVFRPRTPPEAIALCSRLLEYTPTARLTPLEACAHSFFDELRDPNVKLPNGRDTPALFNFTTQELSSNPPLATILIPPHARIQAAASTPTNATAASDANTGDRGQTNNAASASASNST"}
{"data": "Series 1", "SMILES": "CC(C)[C@H](CO)Nc1nc(Nc2cccc(Cl)c2)c2ncn(C(C)C)c2n1", "effect on": "enzyme activity", "action": "inhibitor", "concentration": "0.5 µM", "reference": "control"}
{"target": "SRPK1 (Homo sapiens, UniProt Q96SB4)", "remaining activity": "77%"}
{"target": "SGK2 (Homo sapiens, UniProt Q9HBY8)", "remaining activity": "103%"}
{"target": "PRKCQ (Homo sapiens, UniProt Q04759)", "remaining activity": "127%"}
{"target": "EPHB3 (Homo sapiens, UniProt P54753)", "remaining activity": "102%"}
{"target": "YES1 (Homo sapiens, UniProt P07947)", "remaining activity": "21.2%"}
{"target": "JAK2 (Homo sapiens, UniProt O60674)", "remaining activity": "97.7%"}
{"target": "CSNK1E (Homo sapiens, UniProt P49674)", "remaining activity": "87.3%"}
{"target": "IGF1R (Homo sapiens, UniProt P08069)", "remaining activity": "100%"}
{"target": "RPS6KA3 (Homo sapiens, UniProt P51812)", "remaining activity": "86.3%"}
{"target": "FES (Homo sapiens, UniProt P07332)", "remaining activity": "95.9%"}
{"target": "MELK (Homo sapiens, UniProt Q14680)", "remaining activity": "69.5%"}
{"target": "BRSK2 (Homo sapiens, UniProt Q8IWQ3)", "remaining activity": "97.8%"}
{"target": "TEC (Homo sapiens, UniProt P42680)", "remaining activity": "127%"}
{"target": "PAK4 (Homo sapiens, UniProt O96013)", "remaining activity": "99.5%"}
{"target": "TYRO3 (Homo sapiens, UniProt Q06418)", "remaining activity": "98.9%"}
{"data": "Series 2", "SMILES": "CNC(=O)Nc1ccc2c(c1)CC[C@@]21OC(=O)N(CC(=O)N(Cc2ccc(F)cc2)[C@@H](C)C(F)(F)F)C1=O", "effect on": "cell-free assay", "method": "competition with immobilised ligand", "concentration": "1 µM"}
{"target": "STK11 (Homo sapiens, UniProt Q15831)", "remaining binding": "100%"}
{"target": "STK32C (Homo sapiens, UniProt Q86UX6)", "remaining binding": "88%"}
{"target": "TAOK3 (Homo sapiens, UniProt Q9H2K8)", "remaining binding": "74%"}
{"target": "EGFR (Homo sapiens, UniProt P00533, L858R)", "remaining binding": "96%"}
{"target": "MARK4 (Homo sapiens, UniProt Q96L34)", "remaining binding": "84%"}
{"target": "CDK17 (Homo sapiens, UniProt Q00537)", "remaining binding": "96%"}
{"target": "GSK3B (Homo sapiens, UniProt P49841)", "remaining binding": "82%"}
{"target": "Tyrosine-protein kinase ABL1, non-phosphorylated (ABL1, Homo sapiens, UniProt P00519, F317L)", "remaining binding": "64%"}
{"target": "SRC (Homo sapiens, UniProt P12931)", "remaining binding": "91%"}
{"data": "Series 3", "target": "Hepatocyte nuclear factor 3-alpha (Foxa1, Mus musculus, UniProt P35582, residues 1-468, full length assumed)", "method": "EMSA with sequencing", "molecule type": "double-stranded DNA, one strand shown", "matrix": "in vitro", "concentration": "10 and 20 nM", "setting": "whole designed probe, mean of two concentrations, ends assumed", "reference": "negative control set to 0", "reading": "higher = stronger binding", "constant ends, left off below": "GTGAGCGGTGCCCATTGATGGGGAAC … TTTCACTGGGATCGTGGGGAC", "chain of UniProt P35582 (whole entry, looked up)": "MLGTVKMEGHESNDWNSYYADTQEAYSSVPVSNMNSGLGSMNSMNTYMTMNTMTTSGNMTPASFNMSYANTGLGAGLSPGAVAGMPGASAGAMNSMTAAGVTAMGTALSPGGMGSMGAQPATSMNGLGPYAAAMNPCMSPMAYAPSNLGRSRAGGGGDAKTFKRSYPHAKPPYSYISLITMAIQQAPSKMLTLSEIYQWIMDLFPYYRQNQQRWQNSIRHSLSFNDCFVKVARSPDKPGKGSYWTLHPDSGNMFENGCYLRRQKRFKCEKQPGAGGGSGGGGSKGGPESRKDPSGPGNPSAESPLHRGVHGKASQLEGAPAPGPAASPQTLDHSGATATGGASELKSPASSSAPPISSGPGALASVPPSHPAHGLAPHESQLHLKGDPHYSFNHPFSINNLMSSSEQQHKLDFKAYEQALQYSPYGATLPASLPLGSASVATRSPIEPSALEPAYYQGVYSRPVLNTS"}
{"Sequence": "ACCCTGTGCACCTTGTCTACGTCAGGGTGCTGTTGAAAGATTATTGAGGCCATGTCTGTAGGAAAGCCAGAGCTTCAAGAACAACAAAAACAATGTAATCTGGACTCCTTTCCTATTCTATTAATTCTATTGAAATTATTGAAAAATAATTGTCCTTGCTTTATTTTAAAATTACATGTATTGGTTTTCATCA", "normalised bound fraction [ratio]": 0.00135}
{"Sequence": "CTCCTGACCTGGGACCCCACAGAGCTGGGCCTGTCATCACATTTATGGGGCTGCAGCTGACCTGGGAACTCCCTTCCTCAGTCAGTCCACAAAAAATTACCCAGAGCCTCAGGGTGCTCAGTGACCTTTACAAAACAAAGTGCAGAGTCACGTGCCAGGGCACAGCAATCCCGGGCAAAACAGACCGAAACCC", "normalised bound fraction [ratio]": -0.0501}
{"Sequence": "CAAATCAAAAGACAAAAGAAACTAATCATTCCTTTTAAAGATAATTGCTGTTTTTATCAGATCAATAAAAAATGTGTTAACAACATTAAAAAGTAATCTAGCAAACACAAATGTCAAAAAAGCTAACCTAATGATGACATGTCACTTTCTCCAGTCCCAGCCCCACATCATATAGGAACTTTCCAACTGCCTG", "normalised bound fraction [ratio]": 0.00478}
{"Sequence": "CATGTACAAACAAAATATGGGTTGTGTAATTTCAGTAATTCCATGTACAAGTTAAACACTCTGATATTTGCATTTAAAAATTGCACAATTGTCGTAAACATGAATGCTAACAATCTTTTTTTTTTTTCCTGAGACGGAGTCTTGCTCTATCGCCCAGGCTGGAGTGCAGCGGCACAATCTCTGCTTACTGCCA", "normalised bound fraction [ratio]": 0.18}
{"Sequence": "CACACACACACACACACCCCACACACGCACTACGAGAAGGGGAGTTTGATCTTGTCTCATTGGCGTCTCGGGTCTGAAAGGAAAATCGTTTGGGTAAACAGCCAAGCTTCCAGGCTTAACGCCCGGCTCCCGCCCCCGCCCCTCCATCCCCTCCTGCCTCCCCCACTCGCCTTCAACCCCACCCGCCACCCAC", "normalised bound fraction [ratio]": 0.108}
{"data": "Other studies, line by line"}
{"SMILES": "CCOC(=O)[C@@H]1CSCC(=O)N[C@@H](CC)C(=O)N(C)[C@@H](C)C(=O)N[C@H](CC(C)C)C(=O)N2CCC[C@H]2C(=O)N(CC(C)C)CC(=O)N[C@@H](CC(C)C)C(=O)N(C)[C@H](C)C(=O)N[C@@H](CC(C)C)C(=O)N1C", "system": "hydrocarbon/water", "endpoint": "logD", "value": 0.628}
{"SMILES": "c1ccc2c(-c3nn4c(-c5ccncc5)nnc4s3)c[nH]c2c1", "tested on": "HEK293T ATF4-firefly luciferase reporter", "assay": "integrated stress response, measured: ATF4", "conditions": "1 µM, without ISRIB", "how to read": "reference: DMSO", "endpoint": "reporter signal", "value": "127% and 122% and 149% and 110% and 121% and 134%"}
{"note": "For quick reference, copied from above (series 1):"}
{"target": "PRKCQ (Homo sapiens, UniProt Q04759)", "remaining activity": "127%"}
{"target": "FES (Homo sapiens, UniProt P07332)", "remaining activity": "95.9%"}
{"target": "JAK2 (Homo sapiens, UniProt O60674)", "remaining activity": "97.7%"}
{"target": "IGF1R (Homo sapiens, UniProt P08069)", "remaining activity": "100%"}
{"target": "RPS6KA3 (Homo sapiens, UniProt P51812)", "remaining activity": "86.3%"}
